Published values from different studies.
Parts stem from different laboratories: compare values within a part only.

Set 1 — method: aptamer microarray, sandwich; form: DNA with 2'F-ANA; sample: in vitro; tested at: 200 nM; with: Cy3 exosite-II aptamer, 400 nM; direction: higher = stronger binding; measurement: mean fluorescence intensity; strand: GGTTGGTGTGGTTGG
Target: Prothrombin, mature alpha-thrombin (F2, Homo sapiens, UniProt P00734)
Setting: whole 15-mer aptamer, many near background
2'F-ANA at 2 4 7 8 9 11 12 13: 374 a.u.
2'F-ANA at 1 2 3 4 6 8 9 10 13 15: 53.9 a.u.
2'F-ANA at 1 2 3 5 6 7 8 9 10 13 15: 54.3 a.u.
2'F-ANA at 2 3 5 7 9 11 12: 179 a.u.
2'F-ANA at 8 9 11: 524 a.u.
2'F-ANA at 1 3 5 6 7 8 10 11 13 14: 55.3 a.u.
2'F-ANA at 4 5 6 12 14: 42.3 a.u.
2'F-ANA at 4 5 6 13 14 15: 47.8 a.u.

Set 2 — target: Sox, HMG box (Pigoraptor chileana); method: Spec-seq; form: double-stranded DNA, one strand shown; sample: in vitro; tested at: not given; setting: whole probe, mean of replicates; baseline: not given; direction: lower = stronger binding; measurement: relative binding energy; all sequences stand within: GAGTCGTCTCGTCAGCAC … CCGTAGAGCACTCAGGTC
Residues (chain): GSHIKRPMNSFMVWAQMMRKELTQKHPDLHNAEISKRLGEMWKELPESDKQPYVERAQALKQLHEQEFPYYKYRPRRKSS
CACCGTT: 0.243 ln ratio
CATGAGT: 0.615 ln ratio
AAATGTT: -1.34 ln ratio
CATTTGG: 0.591 ln ratio
GGTCGTT: 1.31 ln ratio
ATGAGTT: 0.188 ln ratio
CATCATC: 0.444 ln ratio
CATCCTC: 0.655 ln ratio

Set 3 — method: protein-binding microarray; form: double-stranded DNA, one strand shown; sample: in vitro; tested at: not given; direction: higher = stronger binding; measurement: E-score
Target: Transcriptional repressor CTCF (CTCF, Homo sapiens, UniProt P49711, residues 1-727, full length assumed)
Setting: k-mer, scored over probes, only values ≥0.25
Target sequence (chain): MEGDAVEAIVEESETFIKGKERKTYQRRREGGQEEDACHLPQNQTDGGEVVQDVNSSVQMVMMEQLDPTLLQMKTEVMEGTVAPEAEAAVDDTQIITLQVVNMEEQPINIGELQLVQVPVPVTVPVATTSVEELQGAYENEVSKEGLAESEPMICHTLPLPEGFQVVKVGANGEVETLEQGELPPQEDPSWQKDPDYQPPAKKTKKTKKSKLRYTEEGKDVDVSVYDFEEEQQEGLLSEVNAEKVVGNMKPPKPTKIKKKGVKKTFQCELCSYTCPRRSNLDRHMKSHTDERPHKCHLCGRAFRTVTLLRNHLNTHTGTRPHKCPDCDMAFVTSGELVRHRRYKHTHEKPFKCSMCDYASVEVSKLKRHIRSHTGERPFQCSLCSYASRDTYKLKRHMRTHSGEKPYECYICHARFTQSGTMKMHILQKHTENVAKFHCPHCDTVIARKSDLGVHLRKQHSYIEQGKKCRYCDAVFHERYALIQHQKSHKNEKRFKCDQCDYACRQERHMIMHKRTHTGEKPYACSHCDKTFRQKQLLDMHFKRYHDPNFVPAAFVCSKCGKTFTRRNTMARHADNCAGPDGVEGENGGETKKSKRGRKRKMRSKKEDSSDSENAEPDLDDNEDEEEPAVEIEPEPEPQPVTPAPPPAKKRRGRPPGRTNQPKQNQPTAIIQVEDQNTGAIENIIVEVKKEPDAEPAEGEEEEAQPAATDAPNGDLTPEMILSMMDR
GATTAACA: 0.256
AATACATG: 0.26
ATTTCTGC: 0.262
ATCGCCAC: 0.251
CGCCCCCA: 0.375
GTTATATA: 0.37
CATACTTC: 0.25
AAAAATTT: 0.317

Single results of other studies
COc1cc(C(=O)N2CCC(N3CCN(C)CC3)CC2)ccc1Nc1ncc2c(n1)N(C)c1ccccc1C(=O)N2C
binding (DDR1; KINOMEscan; 10 µM; baseline: DMSO control, lower = stronger binding): 100%

A few entries again (set 3):
AATACATG: 0.26
GTTATATA: 0.37
CATACTTC: 0.25
